Assay results from different studies.
Each line is one published result; not all experiments were run side by side. Values joined by “and” are separate records of one study, mostly repeats; a detail may differ. ± marks the error that the study gave.
CYP2C19: Cytochrome P450 2C19 (CYP2C19, Homo sapiens, UniProt P33261)
Chain of UniProt P33261 (whole entry, looked up): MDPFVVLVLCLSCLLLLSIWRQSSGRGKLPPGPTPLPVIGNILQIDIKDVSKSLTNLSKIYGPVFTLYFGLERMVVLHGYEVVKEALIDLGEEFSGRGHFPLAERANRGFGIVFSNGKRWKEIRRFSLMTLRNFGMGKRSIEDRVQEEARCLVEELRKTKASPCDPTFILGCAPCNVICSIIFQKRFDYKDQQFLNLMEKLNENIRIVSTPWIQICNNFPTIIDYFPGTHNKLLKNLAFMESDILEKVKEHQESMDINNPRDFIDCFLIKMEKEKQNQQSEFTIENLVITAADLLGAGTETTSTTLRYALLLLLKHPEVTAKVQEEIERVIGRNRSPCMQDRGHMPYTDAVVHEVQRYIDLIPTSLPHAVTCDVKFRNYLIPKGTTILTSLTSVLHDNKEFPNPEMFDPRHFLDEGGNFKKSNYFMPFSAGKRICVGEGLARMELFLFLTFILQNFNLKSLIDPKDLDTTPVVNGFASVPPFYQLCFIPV
Chain of UniProt P08684 (whole entry, looked up): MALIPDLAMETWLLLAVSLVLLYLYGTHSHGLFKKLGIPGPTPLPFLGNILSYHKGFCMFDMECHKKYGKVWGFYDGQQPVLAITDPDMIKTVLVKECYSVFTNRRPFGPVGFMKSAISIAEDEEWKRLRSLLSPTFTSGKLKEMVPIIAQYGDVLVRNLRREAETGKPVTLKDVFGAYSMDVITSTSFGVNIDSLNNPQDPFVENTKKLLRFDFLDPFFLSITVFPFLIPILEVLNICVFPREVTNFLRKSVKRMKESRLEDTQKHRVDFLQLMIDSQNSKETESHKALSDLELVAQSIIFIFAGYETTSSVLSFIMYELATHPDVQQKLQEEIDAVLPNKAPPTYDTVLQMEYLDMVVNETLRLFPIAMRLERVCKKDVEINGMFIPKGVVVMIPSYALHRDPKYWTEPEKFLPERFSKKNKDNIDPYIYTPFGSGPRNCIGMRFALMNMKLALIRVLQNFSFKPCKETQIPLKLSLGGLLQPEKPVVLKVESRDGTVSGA

Compound	tested on	assay	system	setting	scale	endpoint	value
COc1cc2ncnc(Nc3ccc(Oc4ccccc4)c(C)c3C)c2cc1OC.Cl	LoVo (KRAS G13D)	resazurin		0.3 µM, 72 h, added: trametinib 0 nM	reference: DMSO	viability fraction	0.732 and 1.01
CCCCCCCCC(=O)OC[C@H]1O[C@@](C#N)(c2ccc3c(N)ncnn23)[C@H](O)[C@@H]1O	human respiratory syncytial virus	viral replication, viral protein ELISA	HEp-2, A2	5 days	reference: CC50 over EC50	selectivity index	92.9
N[C@@H](Cc1c[nH]cn1)C(=O)O	Bacillus subtilis		NCIB3610, MOPS medium	1 mM, 1 mM equimolar amino acid mixture		uptake half-time	17.1 h
Cc1noc(C)c1Cn1cc(N2C(=O)CN(Cc3cccc(O)c3)C2=O)cn1	human blood lymphocytes			296.6 µg/mL, 3 h, with 2% S9		aberrant cells with gaps	0.5%
C[C@H](N)C(=O)O	Bacillus subtilis		NCIB3610, MOPS medium	1 mM, 1 mM equimolar amino acid mixture		uptake half-time	16 h
Cc1cc(Nc2ccc(S(F)(F)(F)(F)F)cc2)n2nc(C(C)(F)F)nc2n1	Plasmodium falciparum	12-lead Holter ECG	human malaria patients	oral, 250 mg, QTc above 500 ms		patients with QTcF above threshold	0%
COc1ccc2[nH]c([S+]([O-])Cc3ncc(C)c(OC)c3C)nc2c1 (stereo not shown)	CYP2C19		human, plasma	oral, 20 mg, Day 14, added: encorafenib at steady state	reference: Day -7	total AUClast decrease	17%
COc1cccc2c1C(=O)c1c(O)c3c(c(O)c1C2=O)C[C@@](O)(C(=O)CO)C[C@@H]3O[C@H]1C[C@H](N)[C@H](O)[C@H](C)O1	BNL mouse liver cells	SRB		100 µM, 10% fetal bovine serum		viability	7.09%
CC[C@H]1[C@@H](O)[C@@H]2[C@H](CC[C@]3(C)[C@@H]([C@H](C)CCNC(=O)NS(=O)(=O)c4ccc(C(C)(C)C)cc4)CC[C@@H]23)[C@@]2(C)CC[C@@H](O)C[C@@H]12	Cytochrome P450 3A4 (CYP3A4, Homo sapiens, UniProt P08684)		human, plasma	dose not given, geometric mean, added: fluconazole		AUC(0-inf)	1540 ng·h/mL
CCCC(CCC)C(=O)Oc1cccc(C(O)CCN)c1.O=CO (stereo not shown)	porcine liver esterase			99 µM, 15 min	reference: time 0 min	compound remaining	95.1%
COc1ccc2nc([S+]([O-])Cc3ncc(CO)c(OC)c3C)[nH]c2c1 (stereo not shown)	CYP2C19		human, plasma	oral, 20 mg omeprazole, Day 1, added: single dose encorafenib and binimetinib	reference: 5-hydroxyomeprazole over omeprazole	metabolite to parent Cmax ratio	0.244
Nc1nc(NS(=O)(=O)c2ccccc2)ncc1-c1nc2ccccc2s1	BGM	cytotoxicity		72 h		maximum non-toxic concentration	100 µg/mL
N[C@@H](CS)C(=O)O	Bacillus subtilis		NCIB3610, MOPS medium	1 mM, 1 mM equimolar amino acid mixture		uptake half-time	17.3 h
CC(=O)Oc1ccccc1C(=O)O			male Hartley guinea pig, anaesthetized	intravenous, 1 mg/kg, baseline before infusion		QTc interval	308 ± 0.3 ms
N[C@@H](CCC(=O)O)C(=O)O	Bacillus subtilis	amino acid uptake	NCIB3610	added: equimolar amino acid mixture 1 mM		half-time of uptake	17.7 h
CC(C)NCC(O)c1ccc(NS(C)(=O)=O)cc1 (racemic)			male Hartley guinea pig, anaesthetized	intravenous infusion, 10 mg/kg, 10 min infusion, post-infusion		QTc interval	382 ± 0.6 ms

Excerpt of the above:
Compound	tested on	assay	system	setting	scale	endpoint	value
CCCCCCCCC(=O)OC[C@H]1O[C@@](C#N)(c2ccc3c(N)ncnn23)[C@H](O)[C@@H]1O	human respiratory syncytial virus	viral replication, viral protein ELISA	HEp-2, A2	5 days	reference: CC50 over EC50	selectivity index	92.9
N[C@@H](Cc1c[nH]cn1)C(=O)O	Bacillus subtilis		NCIB3610, MOPS medium	1 mM, 1 mM equimolar amino acid mixture		uptake half-time	17.1 h
Cc1noc(C)c1Cn1cc(N2C(=O)CN(Cc3cccc(O)c3)C2=O)cn1	human blood lymphocytes			296.6 µg/mL, 3 h, with 2% S9		aberrant cells with gaps	0.5%
